Assay results of several laboratories.
Each numbered part is a random draw from the data of one study; scales do not carry over between parts. Values joined by “and” are separate records of one study, mostly repeats; a detail may differ.

Set 1
Target: Interferon regulatory factor 7, full length, phosphomimetic (IRF7, Homo sapiens, UniProt Q92985, residues 1-503, S101K/S471D/S472D/S475D/S476D/S477D/S483D/S484D/S487D)
Method: protein-binding microarray
Molecule type: double-stranded DNA, one strand shown
Medium: in vitro
Concentration: 250 nM
Notes: 60-bp whole probe
Added: salmon DNA 0.4 mg/ml
Baseline: random background probes
Direction: higher = stronger binding
Shared flanks, not repeated: GCCTAGCAC … GTCTTGATTCGCTTGACGCTGCTG
Residues (chain): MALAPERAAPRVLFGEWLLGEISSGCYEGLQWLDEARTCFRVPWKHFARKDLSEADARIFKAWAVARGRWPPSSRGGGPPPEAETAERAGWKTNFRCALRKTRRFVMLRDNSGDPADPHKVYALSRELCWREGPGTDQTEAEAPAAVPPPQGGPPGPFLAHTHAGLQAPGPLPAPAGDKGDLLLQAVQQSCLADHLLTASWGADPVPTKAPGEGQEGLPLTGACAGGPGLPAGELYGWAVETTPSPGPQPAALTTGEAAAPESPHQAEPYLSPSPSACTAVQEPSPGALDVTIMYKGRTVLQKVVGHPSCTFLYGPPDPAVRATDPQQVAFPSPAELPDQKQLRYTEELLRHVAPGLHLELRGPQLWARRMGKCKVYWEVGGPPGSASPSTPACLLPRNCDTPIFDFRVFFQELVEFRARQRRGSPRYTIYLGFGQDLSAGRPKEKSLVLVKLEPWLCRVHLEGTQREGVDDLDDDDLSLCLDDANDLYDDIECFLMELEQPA
Strand | log fluorescence [z-score]
TCAACTTTCCAAAGCGTACTGTGCTAG | 0.645
TTAGGTTTCGGGTTTCGGTTAGTGCTA | 12.7
GACGATGTCAGTTTCGAGACGTGCTAG | 3.31
TCATATTTAAGGCATCTGACTGTGCTA | 0.0572
TTAGGTATCGGGTTTCGGTTCGTGCTA | 10.1
AACGGTTTCGGGTATCGGGACGTGCTA | 7.94

Set 2
Target: Sal-like protein 4, full length isoform B (SALL4, Homo sapiens, UniProt Q9UJQ4-2, residues 1-616)
Method: universal PBM
Molecule type: double-stranded DNA, one strand shown
Medium: in vitro
Concentration: not given
Notes: 8-mer, flanks averaged, mean of replicates
Direction: higher = stronger binding
Target sequence (chain): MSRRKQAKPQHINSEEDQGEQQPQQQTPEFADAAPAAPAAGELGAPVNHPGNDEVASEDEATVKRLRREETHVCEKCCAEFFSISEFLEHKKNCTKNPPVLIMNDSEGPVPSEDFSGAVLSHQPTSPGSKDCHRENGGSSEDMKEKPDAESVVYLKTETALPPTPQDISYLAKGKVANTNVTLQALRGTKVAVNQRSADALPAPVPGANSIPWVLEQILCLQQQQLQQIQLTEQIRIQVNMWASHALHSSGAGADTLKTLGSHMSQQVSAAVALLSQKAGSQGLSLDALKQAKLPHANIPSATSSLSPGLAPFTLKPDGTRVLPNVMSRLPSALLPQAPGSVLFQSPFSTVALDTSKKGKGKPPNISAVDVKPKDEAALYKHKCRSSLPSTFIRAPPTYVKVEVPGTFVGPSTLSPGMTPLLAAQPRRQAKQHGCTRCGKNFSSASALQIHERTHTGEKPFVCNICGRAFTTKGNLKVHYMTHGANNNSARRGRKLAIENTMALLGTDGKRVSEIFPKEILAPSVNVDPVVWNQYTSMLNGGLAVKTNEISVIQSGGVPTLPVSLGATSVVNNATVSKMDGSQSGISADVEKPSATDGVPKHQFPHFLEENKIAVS
Strand | E-score
GATGTGAC | -0.0693
ACGTTGCA | 0.00187
TAATCTAA | 0.231
TCTGACCA | 0.0946
GAAGTATC | 0.155
CTAGTGAG | -0.0614
CCTGGCAG | -0.164
TCTAGAAA | 0.103
ACATCGGT | -0.172
ACTTCCTC | -0.208

Set 3
Target: Histone acetyltransferase KAT6A, both winged helices, GST fusion (KAT6A, Homo sapiens, UniProt Q92794, residues 1-181)
Method: protein binding microarray
Molecule type: double-stranded DNA, one strand shown
Medium: in vitro
Concentration: not given
Notes: 8-mer, flanks averaged, mean of 2 arrays, mostly near background
Baseline: not given
Direction: higher = stronger binding
Residues (chain): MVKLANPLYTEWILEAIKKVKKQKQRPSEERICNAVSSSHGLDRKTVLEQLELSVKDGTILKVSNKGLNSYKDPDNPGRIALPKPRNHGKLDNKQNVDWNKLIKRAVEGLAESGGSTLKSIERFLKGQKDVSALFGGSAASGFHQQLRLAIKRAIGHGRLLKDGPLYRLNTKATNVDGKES
Strand | E-score
CAACCTAG | -0.0452
ACTCCGCG | 0.233
CAGTACCC | -0.161
AACGGAAG | 0.2
GTTGCATA | 0.0209
ATGCGCGC | 0.394
AAGTAATC | -0.133
ACTACCAT | -0.131
CACTCAGC | -0.0804
ATTACACC | -0.0114
ATGGTGCG | 0.00338
TTGGACAA | -0.044
GCGATTAC | 0.0746
CAGTATCG | 0.164
AGTCCGTA | 0.231
GTCCGAAA | 0.029
TAACATTA | -0.114

Single results of other studies
Substance | target | test | test system | setting | scale | measurement | value
PhoQ, residues 284 288 289 292 302 303 GNNTDL | PhoP, residues 12 14 15 18 19 LWHSL (Escherichia coli, UniProt P23836) | Sort-seq, measured: YFP reporter | E. coli | PhoQ-PhoP variant library, added: 10 µM Mg2+ | baseline: high Mg2+ state, higher = stronger signaling | fold induction | 1.24 and 1.18
